# Measured values collected from several papers.
# Protocols differ between the studies behind these lines.
# Chain of UniProt Q9T020 (whole entry, looked up): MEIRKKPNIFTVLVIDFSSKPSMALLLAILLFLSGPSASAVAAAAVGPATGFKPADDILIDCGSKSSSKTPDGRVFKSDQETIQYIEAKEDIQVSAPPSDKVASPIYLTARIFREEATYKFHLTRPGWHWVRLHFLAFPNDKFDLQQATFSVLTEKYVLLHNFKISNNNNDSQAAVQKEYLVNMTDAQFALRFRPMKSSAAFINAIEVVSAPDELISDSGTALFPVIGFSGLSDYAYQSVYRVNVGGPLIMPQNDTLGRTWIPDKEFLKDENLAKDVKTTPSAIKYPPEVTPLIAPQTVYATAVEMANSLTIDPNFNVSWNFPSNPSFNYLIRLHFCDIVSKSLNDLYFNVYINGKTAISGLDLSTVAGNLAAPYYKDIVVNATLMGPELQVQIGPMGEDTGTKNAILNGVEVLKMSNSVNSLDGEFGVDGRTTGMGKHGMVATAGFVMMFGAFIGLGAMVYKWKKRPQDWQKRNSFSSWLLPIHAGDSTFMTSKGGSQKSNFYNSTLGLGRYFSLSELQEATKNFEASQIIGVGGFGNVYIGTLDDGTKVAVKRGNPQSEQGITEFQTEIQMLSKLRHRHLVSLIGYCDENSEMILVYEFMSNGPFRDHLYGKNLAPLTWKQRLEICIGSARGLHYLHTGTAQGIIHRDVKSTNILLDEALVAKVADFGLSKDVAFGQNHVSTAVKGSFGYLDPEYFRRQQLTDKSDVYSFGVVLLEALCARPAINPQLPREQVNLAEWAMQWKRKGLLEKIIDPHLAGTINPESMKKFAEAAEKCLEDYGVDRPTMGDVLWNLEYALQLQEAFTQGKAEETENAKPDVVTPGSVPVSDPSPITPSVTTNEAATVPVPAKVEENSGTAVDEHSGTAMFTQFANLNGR
# Chain of UniProt Q8N8S7 (whole entry, looked up): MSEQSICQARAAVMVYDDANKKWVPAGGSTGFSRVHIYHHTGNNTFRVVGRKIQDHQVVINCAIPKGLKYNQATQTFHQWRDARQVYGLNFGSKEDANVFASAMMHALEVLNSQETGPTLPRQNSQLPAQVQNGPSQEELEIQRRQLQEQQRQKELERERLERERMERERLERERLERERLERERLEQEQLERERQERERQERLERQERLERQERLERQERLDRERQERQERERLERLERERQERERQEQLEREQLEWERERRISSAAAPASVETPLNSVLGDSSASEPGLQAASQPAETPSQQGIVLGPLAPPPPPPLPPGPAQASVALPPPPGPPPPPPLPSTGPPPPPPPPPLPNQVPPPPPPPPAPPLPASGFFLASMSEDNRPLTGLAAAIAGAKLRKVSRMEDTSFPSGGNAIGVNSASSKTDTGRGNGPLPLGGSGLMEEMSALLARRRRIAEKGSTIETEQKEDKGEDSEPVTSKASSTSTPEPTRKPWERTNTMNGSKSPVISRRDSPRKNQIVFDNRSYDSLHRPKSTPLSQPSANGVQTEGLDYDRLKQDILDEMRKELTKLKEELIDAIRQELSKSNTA
# Chain of UniProt P07814 (whole entry, looked up): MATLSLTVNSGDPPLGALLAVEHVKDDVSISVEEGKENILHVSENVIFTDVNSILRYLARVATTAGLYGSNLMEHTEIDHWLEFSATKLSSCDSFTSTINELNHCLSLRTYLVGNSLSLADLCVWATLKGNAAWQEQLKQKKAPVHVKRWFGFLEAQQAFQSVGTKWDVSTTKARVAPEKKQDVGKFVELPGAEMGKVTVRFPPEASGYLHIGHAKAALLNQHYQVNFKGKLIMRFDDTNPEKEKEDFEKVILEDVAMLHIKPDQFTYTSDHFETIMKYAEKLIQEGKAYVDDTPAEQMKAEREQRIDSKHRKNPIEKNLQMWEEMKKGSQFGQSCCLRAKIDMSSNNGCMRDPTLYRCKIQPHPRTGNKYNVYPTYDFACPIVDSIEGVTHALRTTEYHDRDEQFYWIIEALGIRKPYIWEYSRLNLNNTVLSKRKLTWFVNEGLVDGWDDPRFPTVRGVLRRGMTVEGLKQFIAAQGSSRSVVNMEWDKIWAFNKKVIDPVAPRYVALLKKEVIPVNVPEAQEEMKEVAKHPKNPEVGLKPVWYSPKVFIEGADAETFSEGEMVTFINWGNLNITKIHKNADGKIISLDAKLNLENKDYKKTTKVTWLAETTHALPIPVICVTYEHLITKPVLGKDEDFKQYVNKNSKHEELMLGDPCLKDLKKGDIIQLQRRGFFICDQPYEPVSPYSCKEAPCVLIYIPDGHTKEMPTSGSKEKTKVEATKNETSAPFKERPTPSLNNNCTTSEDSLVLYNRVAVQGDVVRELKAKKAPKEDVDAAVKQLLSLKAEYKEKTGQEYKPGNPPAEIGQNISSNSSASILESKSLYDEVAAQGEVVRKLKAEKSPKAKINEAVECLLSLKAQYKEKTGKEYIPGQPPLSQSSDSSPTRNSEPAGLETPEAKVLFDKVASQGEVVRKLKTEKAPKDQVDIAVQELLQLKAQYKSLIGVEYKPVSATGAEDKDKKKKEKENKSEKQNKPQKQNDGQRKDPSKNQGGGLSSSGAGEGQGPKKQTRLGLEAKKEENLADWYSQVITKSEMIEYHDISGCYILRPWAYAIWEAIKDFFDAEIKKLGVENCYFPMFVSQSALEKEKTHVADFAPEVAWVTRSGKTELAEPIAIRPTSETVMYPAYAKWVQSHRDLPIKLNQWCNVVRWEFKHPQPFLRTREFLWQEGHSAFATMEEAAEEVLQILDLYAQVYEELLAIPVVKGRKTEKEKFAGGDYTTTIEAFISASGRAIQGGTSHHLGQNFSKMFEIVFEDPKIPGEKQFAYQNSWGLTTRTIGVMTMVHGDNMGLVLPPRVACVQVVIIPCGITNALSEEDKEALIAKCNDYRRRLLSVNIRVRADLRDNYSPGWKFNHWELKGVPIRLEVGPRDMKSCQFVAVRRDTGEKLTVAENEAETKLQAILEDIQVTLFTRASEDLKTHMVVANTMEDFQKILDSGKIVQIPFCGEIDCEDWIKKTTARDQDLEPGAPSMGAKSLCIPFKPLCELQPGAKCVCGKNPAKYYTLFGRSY
# Chain of UniProt P08510 (whole entry, unmodified, looked up): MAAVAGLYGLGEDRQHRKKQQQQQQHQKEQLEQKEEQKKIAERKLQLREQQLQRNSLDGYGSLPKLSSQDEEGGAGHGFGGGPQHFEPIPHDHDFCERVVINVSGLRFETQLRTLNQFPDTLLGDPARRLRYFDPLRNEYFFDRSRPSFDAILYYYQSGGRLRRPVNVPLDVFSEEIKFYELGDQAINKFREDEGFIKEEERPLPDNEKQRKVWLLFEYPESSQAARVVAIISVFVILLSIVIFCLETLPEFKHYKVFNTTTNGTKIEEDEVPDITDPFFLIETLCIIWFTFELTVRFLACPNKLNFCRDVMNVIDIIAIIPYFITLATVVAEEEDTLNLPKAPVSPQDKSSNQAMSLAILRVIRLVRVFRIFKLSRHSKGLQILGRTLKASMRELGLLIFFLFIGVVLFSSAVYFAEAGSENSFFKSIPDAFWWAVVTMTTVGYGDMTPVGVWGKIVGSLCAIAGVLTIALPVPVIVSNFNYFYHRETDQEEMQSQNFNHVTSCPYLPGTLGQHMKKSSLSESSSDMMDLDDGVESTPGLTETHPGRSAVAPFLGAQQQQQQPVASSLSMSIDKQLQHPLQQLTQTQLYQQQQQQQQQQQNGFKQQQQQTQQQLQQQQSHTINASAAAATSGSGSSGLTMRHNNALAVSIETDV
# Chain of UniProt P00811 (whole entry, looked up): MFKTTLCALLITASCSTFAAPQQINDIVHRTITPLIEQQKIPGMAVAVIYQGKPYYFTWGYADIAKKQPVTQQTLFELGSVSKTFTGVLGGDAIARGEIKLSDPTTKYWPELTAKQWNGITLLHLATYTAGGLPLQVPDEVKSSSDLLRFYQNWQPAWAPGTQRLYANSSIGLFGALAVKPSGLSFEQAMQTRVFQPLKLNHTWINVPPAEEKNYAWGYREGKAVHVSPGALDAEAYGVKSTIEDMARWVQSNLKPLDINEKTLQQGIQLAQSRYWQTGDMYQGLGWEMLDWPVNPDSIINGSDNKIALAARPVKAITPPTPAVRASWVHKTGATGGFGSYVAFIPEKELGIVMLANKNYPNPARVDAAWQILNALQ
# Chain of UniProt O96013 (whole entry, looked up): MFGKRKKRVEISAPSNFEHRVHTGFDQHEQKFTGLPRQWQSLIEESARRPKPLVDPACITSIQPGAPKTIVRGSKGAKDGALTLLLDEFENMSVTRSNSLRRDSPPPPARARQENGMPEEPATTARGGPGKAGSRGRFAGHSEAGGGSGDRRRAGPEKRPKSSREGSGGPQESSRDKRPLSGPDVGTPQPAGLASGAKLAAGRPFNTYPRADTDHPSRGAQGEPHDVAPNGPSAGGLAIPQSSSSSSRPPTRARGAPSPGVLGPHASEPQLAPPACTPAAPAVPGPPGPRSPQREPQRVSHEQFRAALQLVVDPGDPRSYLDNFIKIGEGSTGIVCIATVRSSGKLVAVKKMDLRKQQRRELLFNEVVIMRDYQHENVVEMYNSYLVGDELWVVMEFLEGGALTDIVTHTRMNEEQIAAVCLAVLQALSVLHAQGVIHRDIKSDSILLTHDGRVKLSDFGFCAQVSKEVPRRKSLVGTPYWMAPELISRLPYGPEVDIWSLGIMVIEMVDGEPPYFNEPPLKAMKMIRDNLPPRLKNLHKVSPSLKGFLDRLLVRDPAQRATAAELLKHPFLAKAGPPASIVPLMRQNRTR
# Chain of UniProt Q96SW2 (whole entry, looked up): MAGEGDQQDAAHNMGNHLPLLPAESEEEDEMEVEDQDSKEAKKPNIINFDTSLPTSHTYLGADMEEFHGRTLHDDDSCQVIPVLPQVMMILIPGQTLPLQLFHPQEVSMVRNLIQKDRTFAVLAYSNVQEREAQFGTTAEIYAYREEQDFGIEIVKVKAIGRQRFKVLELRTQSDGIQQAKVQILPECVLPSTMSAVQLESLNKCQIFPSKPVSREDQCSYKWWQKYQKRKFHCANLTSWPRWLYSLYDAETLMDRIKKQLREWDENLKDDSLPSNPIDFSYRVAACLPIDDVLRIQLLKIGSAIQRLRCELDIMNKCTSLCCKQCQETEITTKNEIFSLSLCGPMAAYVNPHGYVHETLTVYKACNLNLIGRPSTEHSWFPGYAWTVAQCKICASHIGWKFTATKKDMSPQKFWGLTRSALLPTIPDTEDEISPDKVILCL
SMILES,target,assay,setting,Kd [µM]
CSCC[C@@H](N)C(=O)N[C@H](C)C(=O)N[C@H](C)C(=O)N[C@@H](C(=O)N[C@H](C)C(=O)NCC(=O)N[C@H](CC(C)C)C(=O)N[C@H](Cc1ccc(O)cc1)C(=O)NCC(=O)N[C@H](CC(C)C)C(=O)NCC(=O)N[C@H](CCC(=O)O)C(=O)N[C@H](CC(=O)O)C(=O)N[C@H](CCCNC(=N)N)C(=O)N[C@H](CCC(N)=O)C(=O)N[C@H](Cc1c[nH]cn1)C(=O)N[C@H](CCCNC(=N)N)C(=O)N[C@H](CCCCN)C(=O)N[C@H](CCCCN)C(=O)N[C@H](CCC(N)=O)C(N)=O)C(C)C,"Sh, DEL6-46 (Drosophila melanogaster, UniProt P08510)","ion current, blocker, inside-out patch clamp",+30 mV,7.1
CC(C)C[C@H](NC(=O)[C@H](CCC(=O)O)NC(=O)[C@@H](N)Cc1ccccc1)C(=O)N[C@@H](CCC(=O)O)C(=O)N[C@@H](CCCNC(=N)N)C(=O)N[C@@H](CCCNC(=N)N)C(=O)N[C@@H](Cc1ccccc1)C(=O)N[C@@H](CCCCN)C(=O)N[C@@H](CCC(N)=O)C(=O)N[C@@H](CCC(N)=O)C(=O)O,PDE1C promoter DNA,"binding, microscale thermophoresis",,3.88
CC(C)C[C@H](NC(=O)[C@H](CCC(N)=O)NC(=O)[C@H](CCCNC(=N)N)NC(=O)[C@@H](N)CS)C(=O)N[C@@H](CCCNC(=N)N)C(=O)N[C@@H](CCCCN)C(=O)NCC(=O)N[C@@H](CCCCN)C(=O)N[C@@H](Cc1ccccc1)C(=O)N[C@@H](Cc1ccccc1)C(=O)N[C@@H](CO)C(=O)N[C@@H](CCC(=O)O)C(=O)NCC(=O)NCC(=O)N[C@@H](CO)C(=O)NCC(=O)NCC(=O)N[C@H](C(=O)N[C@@H](CO)C(=O)N[C@@H](Cc1ccccc1)C(=O)N[C@@H](CCC(=O)O)C(=O)N[C@@H](CCC(N)=O)C(=O)N[C@@H](Cc1ccccc1)C(=O)N[C@@H](Cc1c[nH]c2ccccc12)C(=O)N[C@@H](C)C(=O)N[C@@H](Cc1c[nH]c2ccccc12)C(=O)N[C@@H](CC(C)C)C(=O)N[C@@H](Cc1c[nH]c2ccccc12)C(=O)N1CCC[C@H]1C(=O)O)[C@@H](C)O,"Serine/threonine-protein kinase PAK 4 (PAK4, Homo sapiens, UniProt O96013)",fluorescence polarization,added: rhodamine-labeled peptide,0.457
COc1ccccc1C1(O)C(=O)Nc2ccc(F)cc21 (centres unmarked),"Beta-lactamase (ampC, Escherichia coli K-12, UniProt P00811)",,,2000
CC(=O)N[C@@H](CO)C(=O)N[C@@H](Cc1ccccc1)C(=O)N[C@@H](CCC(=O)O)C(=O)N[C@@H](Cc1ccccc1Cl)C(=O)N1CCC[C@H]1C(=O)N1CCC[C@H]1C(=O)N1CC[C@@H]2C=C[C@H]3CC[C@@H](C(=O)N[C@H](C(=O)N[C@@H](CCC(=O)O)C(=O)N[C@@H](CC(=O)O)C(=O)N[C@@H](CCC(=O)O)C(=O)N[C@@H](CC(C)C)C(N)=O)[C@@H](C)O)N3C(=O)[C@H]21,"Protein enabled homolog (ENAH, UniProt Q8N8S7)","binding, fluorescence",,0.21
CC(C)C[C@H](NC(=O)[C@H](C)NC(=O)[C@H](CCC(=O)O)NC(=O)[C@@H](N)C(C)C)C(=O)N[C@@H](CC(C)C)C(=O)N[C@H]1CC(=O)NC1=O,"Protein cereblon, with DDB1 (CRBN, Homo sapiens, UniProt Q96SW2)",binding,,0.0345
CC[C@H](C)[C@H](NC(=O)c1ccc2c(c1)C(=O)OC21c2ccc(N(C)C)cc2Oc2cc(N(C)C)ccc21)C(=O)N[C@H](C(=O)N[C@@H](C)C(=O)N[C@@H](CC(C)C)C(=O)N[C@H](C(=O)N[C@@H](CO)C(=O)N[C@@H](CC(N)=O)C(=O)N[C@@H](CCC(N)=O)C(=O)N[C@@H](CCC(=O)O)C(=O)N[C@@H](Cc1ccc(OP(=O)(O)O)cc1)C(=O)N[C@@H](CC(C)C)C(=O)N[C@@H](CC(=O)O)C(=O)N[C@@H](CC(C)C)C(=O)N[C@@H](CO)C(=O)N[C@@H](CCSC)C(=O)N1CCC[C@H]1C(=O)N[C@@H](CC(C)C)C(=O)N[C@@H](CC(=O)O)C(=O)O)[C@@H](C)O)C(C)C,"1-phosphatidylinositol 4,5-bisphosphate phosphodiesterase gamma-2, SH2 domain (PLCG2, Homo sapiens, UniProt P16885)",binding,,1.47
O=C(N[C@@H]1c2ccccc2C[C@H]1N1CCCC1)c1ccc(-c2ccnc3[nH]ccc23)nc1,"Tyrosine-protein kinase JAK1, JH1 (JAK1, Homo sapiens, UniProt P23458)","binding, competition with immobilised ligand",,0.79
CC[C@H](C)[C@H](NC(=O)[C@H](CCCCN)NC(=O)[C@H](C)NC(=O)[C@H](CCCNC(=N)N)NC(=O)[C@H](CCCCN)NC(=O)[C@H](CCC(N)=O)NC(=O)[C@H](CCC(N)=O)NC(=O)[C@H](CC(N)=O)NC(=O)[C@@H](NC(=O)[C@H](CC(C)C)NC(=O)[C@H](CC(N)=O)NC(=O)[C@@H]1CCCN1C(=O)[C@H](CC(=O)O)NC(=O)[C@H](CC(C)C)NC(=O)[C@H](C)NC(=O)[C@H](CS)NC(=O)[C@H](CCC(=O)O)NC(=O)[C@H](Cc1c[nH]c2ccccc12)NC(=O)[C@H](Cc1ccc(O)cc1)NC(=O)[C@H](CCCNC(=N)N)NC(=O)[C@H](CC(N)=O)NC(=O)[C@H](CCCNC(=N)N)NC(=O)[C@H](CCSC)NC(=O)[C@H](CCC(=O)O)NC(=O)[C@H](CCCCN)NC(=O)[C@H](CO)NC(=O)[C@H](Cc1ccccc1)NC(C)=O)[C@@H](C)O)C(=O)N[C@@H](CCCNC(=N)N)C(=O)N[C@@H](CO)C(=O)N[C@H](C(=O)N[C@@H](Cc1ccc(O)cc1)C(=O)N[C@@H](CCC(=O)O)C(=O)N[C@@H](CCC(=O)O)C(=O)NCC(=O)N[C@@H](CCC(=O)O)C(N)=O)[C@@H](C)CC,"Receptor tyrosine-protein kinase erbB-2 (ERBB2, Homo sapiens, UniProt P04626)","binding, SPR",,0.019
C[C@H]1NC(=O)[C@H](CCC(=O)N[C@@H](CCCCN)C(N)=O)NC(=O)[C@@H](C)NC(=O)[C@H](Cc2ccc(F)cc2)NC(=O)[C@H](Cc2c[nH]c3ccccc23)NC(=O)[C@H](CCCNC(=N)N)NC(=O)[C@H](Cc2ccc(O)cc2)NC(=O)[C@H](CCCNC(=N)N)NC1=O,"Bifunctional glutamate/proline--tRNA ligase (EPRS1, Homo sapiens, UniProt P07814)",binding,,2.5
CC(=O)c1cnc2ccc(-c3cc(Cl)c(O)c(Cl)c3)nc2c1N[C@H]1CC[C@H](CN(C)C)CC1,"Probable receptor-like protein kinase At4g39110 (Arabidopsis thaliana, UniProt Q9T020)","binding, SPR",,> 100

# A few entries again:
SMILES,target,assay,setting,Kd [µM]
CC[C@H](C)[C@H](NC(=O)[C@H](CCCCN)NC(=O)[C@H](C)NC(=O)[C@H](CCCNC(=N)N)NC(=O)[C@H](CCCCN)NC(=O)[C@H](CCC(N)=O)NC(=O)[C@H](CCC(N)=O)NC(=O)[C@H](CC(N)=O)NC(=O)[C@@H](NC(=O)[C@H](CC(C)C)NC(=O)[C@H](CC(N)=O)NC(=O)[C@@H]1CCCN1C(=O)[C@H](CC(=O)O)NC(=O)[C@H](CC(C)C)NC(=O)[C@H](C)NC(=O)[C@H](CS)NC(=O)[C@H](CCC(=O)O)NC(=O)[C@H](Cc1c[nH]c2ccccc12)NC(=O)[C@H](Cc1ccc(O)cc1)NC(=O)[C@H](CCCNC(=N)N)NC(=O)[C@H](CC(N)=O)NC(=O)[C@H](CCCNC(=N)N)NC(=O)[C@H](CCSC)NC(=O)[C@H](CCC(=O)O)NC(=O)[C@H](CCCCN)NC(=O)[C@H](CO)NC(=O)[C@H](Cc1ccccc1)NC(C)=O)[C@@H](C)O)C(=O)N[C@@H](CCCNC(=N)N)C(=O)N[C@@H](CO)C(=O)N[C@H](C(=O)N[C@@H](Cc1ccc(O)cc1)C(=O)N[C@@H](CCC(=O)O)C(=O)N[C@@H](CCC(=O)O)C(=O)NCC(=O)N[C@@H](CCC(=O)O)C(N)=O)[C@@H](C)CC,"Receptor tyrosine-protein kinase erbB-2 (ERBB2, Homo sapiens, UniProt P04626)","binding, SPR",,0.019
